Measured values pooled from the literature.
A part holds a random share of what one study measured. Changes are numbered by the printed parent chain.

Study 1
Variant: D96T
Target: ABI1, truncated, D143A, DHFR fusion (Arabidopsis thaliana)
Technique: DHFR PCA, deep sequencing
Medium: yeast
Notes: methotrexate growth selection, single substitutions
Baseline: wild-type fitted maximum
Reading: higher = stronger binding
Measurement: relative binding score
Starting sequence: PYL1, truncated, DHFR fusion (Arabidopsis thaliana); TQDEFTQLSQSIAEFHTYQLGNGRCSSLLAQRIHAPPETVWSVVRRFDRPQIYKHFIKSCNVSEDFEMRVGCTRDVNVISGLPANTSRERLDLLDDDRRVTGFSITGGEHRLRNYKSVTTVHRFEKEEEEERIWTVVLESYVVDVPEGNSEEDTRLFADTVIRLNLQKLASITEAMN
together with: (+)-ABA 0.0091 µM: 11.3%
together with: (+)-ABA 1.4 µM: -1.07%
together with: (+)-ABA 2500 µM: 85.6%
together with: (+)-ABA 4.8 µM: -9.52%
together with: (+)-ABA 0.11 µM: -10.5%
together with: (+)-ABA 200 µM: 38.8%

Study 2
Target: CCNB3, cyclin fold, Cln2 fusion (human)
Technique: yeast growth competition, sequencing
Medium: yeast
Notes: weak parent motif
Baseline: not given
Reading: higher = stronger binding
Measurement: normalised enrichment score
Starting sequence: CDC25A docking peptide (human); PPHRRRLLFACSP
A10C: -0.137
F9C: -0.171
P13R: -0.0632
R6P: 0.361
P2R: 0.438
L7F: 0.375
P1D: 0.0651
P13G: 0.549

Mixed results
KQMEDGHTL — binding (HLA class I histocompatibility antigen, A alpha chain, allele A*80:01 (Homo sapiens, UniProt P04439); peptide-MHC binding; peptide; concentration not given): inactive
CNCc1ccccc1-c1csc([C@@H](C)Nc2nc(C)nc3cc(OC)c(OC)cc23)c1 — inhibition (D(1B) dopamine receptor (DRD5, Homo sapiens, UniProt P21918); cell-free assay; 10 µM): 32.5%
